Published values from different studies.
Parts stem from different laboratories: compare values within a part only. Changes are numbered by the printed parent chain.

Set 1
Target: Interferon regulatory factor 3, full length, phosphomimetic (IRF3, Homo sapiens, UniProt Q14653, residues 1-427, S386D/S396D/S398D/S402D/T404D/S405D)
UniProt Q14653, sequence (whole entry, unmodified, looked up): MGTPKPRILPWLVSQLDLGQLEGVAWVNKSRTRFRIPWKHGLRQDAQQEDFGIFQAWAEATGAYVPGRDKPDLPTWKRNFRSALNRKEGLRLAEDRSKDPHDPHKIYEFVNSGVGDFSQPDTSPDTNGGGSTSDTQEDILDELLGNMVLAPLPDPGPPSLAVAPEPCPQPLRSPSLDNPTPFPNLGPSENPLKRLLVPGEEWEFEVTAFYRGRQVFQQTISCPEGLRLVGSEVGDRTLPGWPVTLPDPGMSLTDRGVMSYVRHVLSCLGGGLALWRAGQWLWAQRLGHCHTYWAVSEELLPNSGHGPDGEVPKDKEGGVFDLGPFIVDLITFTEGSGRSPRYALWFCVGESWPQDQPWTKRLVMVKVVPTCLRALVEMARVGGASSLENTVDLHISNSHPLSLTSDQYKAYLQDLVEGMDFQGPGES
Method: protein-binding microarray
Molecule type: double-stranded DNA, one strand shown
Sample: in vitro
Tested at: 2540 nM top
Notes: 60-bp whole probe
With: salmon DNA 0.4 mg/ml
Relative to: random background probes
Direction: higher = stronger binding
All sequences stand within: GCCTAGCAC … GTCTTGATTCGCTTGACGCTGCTG
| Strand | fitted relative affinity |
| --- | --- |
| GACGATCTCAGTTGCGAGACGTGCTAG | 0.794 z-score |
| TTAGGTTTGGGTTCCGGTTAGTGCTAG | 1.24 z-score |
| TTAGAACTGAGTTTCGAATAGTGCTAG | 1.58 z-score |
| TCAAGGCTGTGTTTTCACACTGTGCTA | -0.637 z-score |
| CCCGCTTTTTTTTTTTTTTTGTGCTAG | 0.423 z-score |
| GACGGTAGCGGGTTTCGGGACGTGCTA | 1 z-score |
| AGAGCTATCACTATTCTAGGGTGCTAG | 0.535 z-score |
| TTTTTTTTACTTCGGGTGACGTGCTAG | 1.26 z-score |
| TTAGGTATCGGGAATCGGTTAGTGCTA | 0.658 z-score |
| TTAGATTTCAGTATCAATTAGTGCTAG | 2.25 z-score |
| TTAAATCTCAGTTTCGATTAGTGCTAG | 3.98 z-score |
| GATAATTTTTTTCTAAGTAAGTGCTAG | 0.403 z-score |
| TTAGAACTGGGGTATCGATTAGTGCTA | -0.347 z-score |
| TCAGGTATCGGTTTCGGTTAGTGCTAG | 8.57 z-score |
| GCAGGGTATAGGCATTCCCTGTGCTAG | -0.942 z-score |
| GACGGTATACTTATCCTGACGTGCTAG | 0.492 z-score |

Set 2
Target: Ras GTPase-activating protein-binding protein 1, full length (G3BP1, Homo sapiens, UniProt Q13283)
UniProt Q13283, sequence (whole entry, looked up): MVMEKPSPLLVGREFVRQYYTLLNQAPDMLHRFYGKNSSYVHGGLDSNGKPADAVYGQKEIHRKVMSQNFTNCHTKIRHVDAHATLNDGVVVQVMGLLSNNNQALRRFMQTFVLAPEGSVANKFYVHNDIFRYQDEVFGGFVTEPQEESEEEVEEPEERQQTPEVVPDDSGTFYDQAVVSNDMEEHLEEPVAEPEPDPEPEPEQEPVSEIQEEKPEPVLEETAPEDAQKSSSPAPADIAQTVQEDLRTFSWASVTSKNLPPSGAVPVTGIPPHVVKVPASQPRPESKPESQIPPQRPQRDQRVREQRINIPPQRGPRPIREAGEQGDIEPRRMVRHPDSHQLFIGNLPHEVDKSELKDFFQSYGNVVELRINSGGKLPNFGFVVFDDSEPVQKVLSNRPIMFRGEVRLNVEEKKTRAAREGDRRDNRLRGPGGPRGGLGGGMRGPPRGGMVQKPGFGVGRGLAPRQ
Method: RNA Bind-n-Seq
Molecule type: RNA
Sample: in vitro
Tested at: 200 nM
Notes: whole 134-nt RNA, ends assumed
With: 150 mM LiCl
Relative to: input library
Direction: higher = stronger binding
Library: 7-deaza-guanosine replaces G
All sequences stand within: GGGAGUUCUACAGUCCGACGAUC … UGGAAUUCUCGGGUGUCAAGG
| Strand | log2 enrichment |
| --- | --- |
| UCCUGUGCUACACAUCGUAUGUACCGAAUCAAAUUUUUUUAAACCCAAAUUUUUUUAAAAAAGUAUUAUGUUACGCCGUUCGGAUCUGCA | -1.78 |
| CAAGUCCUGUGCUACACAUCGUAUGUACCGAAUCGGGGUGGGGUUUGGGGUGGGGAAAGUAUUAUGUUACGCCGUUCGGAUCUGCACUUC | -0.666 |
| CUGUGCUACACAUCGUAUGUACCGAAUCGGGGAAAAAAGGGGAAAAAAGGGGAAAAAAGGGAAAGUAUUAUGUUACGCCGUUCGGAUCUG | 0.387 |
| ACCAUGCAGGUGGGCAUCUUUGGGAAGUGGGGCAAGGGGGGGAUAGGGAGGGGGGUAACACUUUAAAAACAGGUGGUCCCAGGUCGUUUC | -0.178 |
| CACAGACAACACGCACCCACACAGACACAGAGGGAAGGGGUUGGGAUGGGGACAGGGUGCACAGCAGGGCGGGGUAGGACUCCAGCCCCU | -1.63 |
| CACAGACAACACGCACCCACACAGACACAGAGGGAAGGGGUUGGGAUGGGGACAGGGUGCACAGCAGGGCGGGGUAGGACCCCAGCCCGU | -0.607 |
| AAGUCCUGUGCUACACAUCGUAUGUACCGAAUCGGGAGGGUUUGGGUUUUUUUGGGAAAGUAUUAUGUUACGCCGUUCGGAUCUGCACUU | -0.428 |
| UCCUGUGCUACACAUCGUAUGUACCGAAUCGGGCCCCCCGGGCCCCCCGGGCCCCCCGGAAAGUAUUAUGUUACGCCGUUCGGAUCUGCA | -0.655 |
| CACAGACAACACGCACCUACACAGACACAGAGGGAAGGGGUUGGGAUGGGGACAGGGUGCACAGCAGGGCGGGGUAGGACCCCAGCCCCU | 0.387 |
| AGUCCUGUGCUACACAUCGUAUGUACCGAAUCGUGUGUGUGUGUGUGUGUGUGUGUGUAAAGUAUUAUGUUACGCCGUUCGGAUCUGCAC | -0.632 |
| CCUGUGCUACACAUCGUAUGUACCGAAUCAAACCCCCCCAAAUUUUUAAAUUUUUUUAAAAAAGUAUUAUGUUACGCCGUUCGGAUCUGC | 1.56 |

Set 3
Target: ABI1, truncated, D143A, DHFR fusion (Arabidopsis thaliana, UniProt P49597)
Method: DHFR PCA, dose-response
Sample: yeast
Notes: Hill fit, not affinity
With: (+)-ABA, dose series
Direction: lower = more sensitive
Starting sequence: PYL1, truncated, DHFR fusion (Arabidopsis thaliana, UniProt Q8VZS8); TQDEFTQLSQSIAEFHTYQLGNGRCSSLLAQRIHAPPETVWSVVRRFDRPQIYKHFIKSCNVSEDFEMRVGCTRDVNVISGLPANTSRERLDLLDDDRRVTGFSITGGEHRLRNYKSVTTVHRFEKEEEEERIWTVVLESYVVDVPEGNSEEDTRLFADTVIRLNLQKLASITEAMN
| Substitution | ABA EC50 |
| --- | --- |
| Q2V | 9.09 µM |
| N85C | 11.7 µM |
| T120S | 2.26 µM |
| R24Q | 2.69 µM |
| T120C | 2220 µM |
| G108C | 1490 µM |
| H110W | 3.39 µM |
| S104W | 1510 µM |
| S9K | 29.8 µM |
| W134Y | 2.98 µM |
| K126C | 1.39 µM |
| N77T | 2.26 µM |
| D92A | 109 µM |
| C25V | 7.85 µM |

Set 4
Target: CCNE2, cyclin fold, Cln2 fusion (human)
Method: yeast growth competition, sequencing
Sample: yeast
Notes: strong parent motif
Relative to: not given
Direction: higher = stronger binding
Starting sequence: CDKN1B docking peptide (human); PSACRNLFGPVDH; partner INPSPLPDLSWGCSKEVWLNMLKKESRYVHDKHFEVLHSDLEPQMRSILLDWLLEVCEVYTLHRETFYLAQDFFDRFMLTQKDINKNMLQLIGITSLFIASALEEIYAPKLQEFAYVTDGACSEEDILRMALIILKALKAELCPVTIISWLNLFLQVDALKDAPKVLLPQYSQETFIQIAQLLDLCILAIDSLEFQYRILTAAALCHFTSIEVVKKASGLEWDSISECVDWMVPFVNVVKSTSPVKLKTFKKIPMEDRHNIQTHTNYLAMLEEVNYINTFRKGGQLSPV
| Substitution | normalised enrichment score |
| --- | --- |
| PSACRNFFGPVDH [L7F] | 0.841 |
| PSACRNLFIPVDH [G9I] | 0.809 |
| PSACRNVFGPVDH [L7V] | 0.658 |
| PSACRNLFGPVIH [D12I] | 0.808 |
| PCACRNLFGPVDH [S2C] | 0.624 |
| PSACRNLFGLVDH [P10L] | 0.834 |
| PSACRNKFGPVDH [L7K] | -0.0446 |
| PSFCRNLFGPVDH [A3F] | 1.65 |
| PSADRNLFGPVDH [C4D] | 0.253 |
| PSACRNLKGPVDH [F8K] | 0.112 |
| PSACRNLFGKVDH [P10K] | 1.44 |
| PSACRNLFCPVDH [G9C] | 0.0843 |
| PSAIRNLFGPVDH [C4I] | 0.894 |
| PSACRNLFGPCDH [V11C] | 0.864 |
| MSACRNLFGPVDH [P1M] | 1.33 |
| PSACRNLFGPVLH [D12L] | 1.39 |
| PSACRNLFGPVDR [H13R] | 1.32 |
| PSACCNLFGPVDH [R5C] | -0.132 |

Set 5
Target: RNA binding protein fox-1 homolog 2, RRM domain, GST-SBP tag (RBFOX2, Homo sapiens, UniProt O43251-10, residues 100-194)
Method: RNA Bind-n-Seq
Molecule type: RNA
Sample: in vitro
Tested at: 365 nM
Notes: natural RNA segment, single round, ends assumed
Relative to: no-protein control
Direction: higher = stronger binding
All sequences stand within: GGGAGUUCUACAGUCCGACGAUC … UGGAAUUCUCGGGUGCCAA
Target sequence (chain): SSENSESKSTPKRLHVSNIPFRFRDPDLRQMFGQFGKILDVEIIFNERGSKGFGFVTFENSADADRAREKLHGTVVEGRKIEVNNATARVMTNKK
| Strand | RBNS enrichment (R) |
| --- | --- |
| GUCACUGUCACUGUGGCGGGACAGAGUGCUUCGGUAUAAGCCCGCAGGCUUCUGGUUCUUGGUUCUAUUAUGCCACUUCUCCGGUUCUUUCUAUCCCAAGGAGAGUGUGA | 0.483 |
| UGAAAAAUGUAUAUCACUCAAUUUUUAUCUAAGAAGGAUAGGUUAUAAAGGGAGGUACCUAAAUACUCAAAUAAUGUAUAUAUUCUUUUUCAUAACAUAUGGAAUGCUUU | 0.755 |
| GAGAACACACUAAAGGACUCCUGAGUCACUACCACAGCCACCUGGAAACCACAAGGCAUUUGAUGCUACCGUUCUGGUCAGGGAUUGGGCUGCUUCUUCAGUUCCUAAUA | 0.407 |
| GCUUUUUUUGUAUUUUAUUAAUAUAGACUCUCAUUGAAUAAUUUACCUUGCAGCAGAUUUGACAUUGCUGCAUAGAAGGGGCAGGUGUUGGUUUUUGUUUCUUGCAUUUC | 2.15 |
| UUCCUAGAGCCCCAGGGUCAACUGUCCUCUCUAGCAUGCAGCCUGUGACAGCUUGCUUCAGGACAAAGCAACAGUGAAGUGAGAAAAUGUCAACAGGAGAGAAAGGGCCC | 17.2 |
| AAUCAAGCAAAUGGUCCUCUAUUAAGUAAAAAGUAGAAGAGCAAUGUGGUUCUUUUCAGUGUGCCUGCAUAGCGUUCCUGUGUGUACCCCAAGGAUAACUGUAUGCUAUC | 0.451 |
| CCUCUUUCUCUCUCUAUUUAUAAAUGAGAACUGUUGGACGACACCUUUGACAUAUCAGCCAAUACCAAUCAAGCUGACGACUCCAGACACUCCGUGUGACUGUAACAUUU | 0.438 |
| CUGUGGCAAUUACAGUUUUUGACUUUUCCAUGUGAGAAUAAGGCCUUGGUAUUUCCCUAAGGGCAGGAUCAGAAAACAGGAAGGUCCAUGCCCAGGUGAUCCUCCAAGGG | 0.486 |
| AUUUCCCUUACUCUGAAGUUCCGGCAUUCACAUCAUUCAUGUUUUCUUUUGUCUUUUAGCUAAAGGAAAAGCAUUGGCGAUUUGUCUGAUUCUGGUUUUGAGUUACUCUU | 0.218 |
| AGCAUUAUUGCUUUAGAAUGUUCAAAUAAAAUUUCCUGACCAAAUUGUUUUGUGACAGUAGAUGUGUUUAUAAUUUGAAGAUACCUGCUCAGAAGGCCAUAUUAUAGAAU | 0.784 |
| AAGUGAGCCAUAUUUAUUGUCUUUAGGAAAUCACUAAUUGCUCUUUGACUGCACUGUGGGUGAGUGUUCUGAGCUCCCAAUAUUGUACAGCAUCGUAAAUUAUCCAAGGA | 1.97 |
| UGCCGGAGCUGCCCUUCACCUUUGGGGCCCGAGACAGUCAUAAGGGAUGGACUUAGUUUUCUUGCAGGGAAAAAGGUGGACAGCCGUGUUUCUUAAGGAUGCUGAGGGCA | 0.338 |

Set 6
Target: Histone acetyltransferase KAT6A, winged helix 1, GST fusion (KAT6A, Homo sapiens, UniProt Q92794, residues 1-85)
Method: protein binding microarray
Molecule type: double-stranded DNA, one strand shown
Sample: in vitro
Tested at: not given
Notes: 8-mer, flanks averaged, mean of 2 arrays, mostly near background
Relative to: not given
Direction: higher = stronger binding
Residues (chain): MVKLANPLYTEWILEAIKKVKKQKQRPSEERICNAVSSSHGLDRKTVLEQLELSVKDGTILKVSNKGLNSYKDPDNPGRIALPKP
| Strand | E-score |
| --- | --- |
| CCTTACAG | -0.0574 |
| ATACATTA | -0.0647 |
| CTTGAACC | -0.0094 |
| ACGATAGG | -0.0935 |
| CTGTAGAC | 0.0422 |
| CAGCATAC | -0.094 |
| AACTGGCG | 0.0496 |
| CATCGCTA | -0.11 |
| GCATACAC | -0.106 |
| TGAAATCA | -0.0723 |
| AAGGTGCT | -0.117 |
| AAGCGTCC | 0.0188 |
| AGGGTAAA | -0.155 |
| CGCAAACA | 0.0203 |
| CGTGTCTA | 0.0919 |
| CCCGGTCA | 0.228 |
| AGTAACTA | 0.0268 |
| CAGCTAAA | -0.14 |
| GAGTCACA | -0.151 |
| GCATTTAA | -0.118 |
| GGGCCAAA | 0.0708 |
| CCTCGACA | -0.168 |
| GAAGGCGC | 0.339 |
| GTACCGAC | 0.17 |
| CAGTCACG | 0.0758 |

Mixed results
| Substance | target | test | test system | setting | scale | quantity | result |
| --- | --- | --- | --- | --- | --- | --- | --- |
| PhoQ, residues 284 288 289 292 302 303 SNGLAW | PhoP, residues 12 14 15 18 19 AQALL (Escherichia coli, UniProt P23836) | Sort-seq, refers to: YFP reporter | E. coli | PhoQ-PhoP variant library, with: 10 µM Mg2+ | relative to: high Mg2+ state, higher = stronger signaling | fold induction | 12.7 |

Some of these lines once more (set 1):
| Strand | fitted relative affinity |
| --- | --- |
| TTAGAACTGGGGTATCGATTAGTGCTA | -0.347 z-score |
| TTAGATTTCAGTATCAATTAGTGCTAG | 2.25 z-score |
| GACGGTAGCGGGTTTCGGGACGTGCTA | 1 z-score |
| GACGATCTCAGTTGCGAGACGTGCTAG | 0.794 z-score |
| TCAAGGCTGTGTTTTCACACTGTGCTA | -0.637 z-score |
| GATAATTTTTTTCTAAGTAAGTGCTAG | 0.403 z-score |
